# Published values of several laboratories.
# A part holds a random share of what one study measured.

# Set 1
# Target: RING finger protein unkempt homolog, zinc fingers 1-6, GST-SBP tag (UNK, Homo sapiens, UniProt Q9C0B0, residues 30-357)
# UniProt Q9C0B0, sequence (30-357, looked up): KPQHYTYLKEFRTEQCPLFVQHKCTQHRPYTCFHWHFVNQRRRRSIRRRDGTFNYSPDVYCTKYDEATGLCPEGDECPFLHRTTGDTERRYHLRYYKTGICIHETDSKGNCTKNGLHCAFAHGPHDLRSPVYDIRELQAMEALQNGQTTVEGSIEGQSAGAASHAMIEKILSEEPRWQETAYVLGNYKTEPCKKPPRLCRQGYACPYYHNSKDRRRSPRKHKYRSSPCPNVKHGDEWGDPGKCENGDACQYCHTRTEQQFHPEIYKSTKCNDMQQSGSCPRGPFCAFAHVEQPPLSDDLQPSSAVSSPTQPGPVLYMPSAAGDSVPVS
# Method: RNA Bind-n-Seq
# Molecule type: RNA
# Sample: in vitro
# Tested at: not given
# Setting: RNA with constant flanks, human and mouse sites, ends assumed
# Reference: input RNA pool
# Direction: higher = stronger binding
# Constant ends, left off below: GGGAGUUCUACAGUCCGACGAUC … CAACAGAGGAUUGAGCAUCA
Sequence,bound/input enrichment
UACAACAUGGCCUCAGUCGACUUUGAUGGCUUCUUUGCCGCCUUCCUCCCAGAGUUCCUGACCAGCUGUGAUGGUGUGGAUGCCAACCAGAAAAGUGUGCUGGGGCGGAAUUUCAAGAUG,0.117 ratio
AUGACCGUGAAAUAAUGAGAGAAGGCAGUGCUUUCGAGGAUGACGACAUGUUAGUGAGCACCAGCGCUUCCAACCUUCUCCUCGAGCCAGAGCAGAGCACCAGCAACCUGAAUGAAAAGA,0.147 ratio
ACUAAGCCUACCCCAUUGAUCCUGGACGAGCAAGGCCGCACUGUGGAUGCGACAGGCAAGGAGGUGGAGCUCACACAUCGCAUGCCCACCCUGAAGGCAAACAUUCGGGCUGUGAAGAGG,0.189 ratio
GAGGGAAUGUCUGAAAGUCCCUUAAUAAUGUUAAGAAUCAAGAGAGAGAAAUUGUUGCCUUUUUUUUUUAAUUCUGAGCAUAUUGACCAUGUCAACUAACACUACAGAUUAAAAUAUCAU,0.51 ratio
GAUUAUGUGCCUGCUUUAAAAGGUUUGGGUGAAUGCCAUCUUAUGAUGGCAAAAGCAGCUCUAGUUGAUUAUCUUGAUGGAAAAGCCGUAGACUACAUAGAAAAAGCACUGGAAUAUUUU,3.13 ratio
GCGGUCCCCACGGUCCUGGUAACCCCCCUGGGCGCCCUUGGAGUACCGUUCGGGUCCAUUUUAGCUUCCUAUCUCCUGAAGGAAAAGCUCAACAUCUUGGGCAAGUUGGGGUGCCUGCUA,0.281 ratio
UAACAAUAUAUGAUAUAUAAACCUUAAAUGAAAAAAAUGAUCUAUUGCAGAUAUUUGAUGUAGUUUUCUUUUUUAAAUUAAUCAGAAACCCCACUUCCAUUGUAUUGUCUGACACAUGCU,6.09 ratio
GCAGCAAUGUCAAUACAAGGUUCAGCAAAUCUGCAAACCCAGUGGAAUAUUGUAGGGGAGUUCAGCAAUUUGCCCCAAGAAGAACUUAUAGAAUGGAUCAAAUAUAGUACUAAACCAGAU,3.41 ratio
UGAUGAGAGAAGGAUCUGCAAUGCUGUUUCUCCAGACAAGGAUGUUGAUGGCUUUCAUGUAAUUAAUGUAGGACGAAUGUGUUUGGAUCAGUAUUCCAUGUUACCGGCUACUCCAUGGGG,0.365 ratio
AAUAUAAUGCAGGUUUUUAUAUACUGUCUGGAACAGUUGAGCACCAAGCCUGAUGCAGAUAUAGAUACUACACAUCUCUCUGUUGAUGUUUCUUCCCCUGACUUGUUUGGAAGUAUCCAU,0.0743 ratio
CAACAGUUUGCACAAGCUCAGCUUCAUCCUUCUUCAUCAGCAUCCUUUACUCAGGCUUCUAAUGUUUCUAAUUACUCAGGUCAGACGCUGCAGCCUAUAGGGGUGACGCAUGUGCCUGUU,0.217 ratio

# Set 2
# Target: Sal-like protein 4, full length isoform A (SALL4, Homo sapiens, UniProt Q9UJQ4, residues 1-1053)
# UniProt Q9UJQ4, sequence (whole entry, looked up): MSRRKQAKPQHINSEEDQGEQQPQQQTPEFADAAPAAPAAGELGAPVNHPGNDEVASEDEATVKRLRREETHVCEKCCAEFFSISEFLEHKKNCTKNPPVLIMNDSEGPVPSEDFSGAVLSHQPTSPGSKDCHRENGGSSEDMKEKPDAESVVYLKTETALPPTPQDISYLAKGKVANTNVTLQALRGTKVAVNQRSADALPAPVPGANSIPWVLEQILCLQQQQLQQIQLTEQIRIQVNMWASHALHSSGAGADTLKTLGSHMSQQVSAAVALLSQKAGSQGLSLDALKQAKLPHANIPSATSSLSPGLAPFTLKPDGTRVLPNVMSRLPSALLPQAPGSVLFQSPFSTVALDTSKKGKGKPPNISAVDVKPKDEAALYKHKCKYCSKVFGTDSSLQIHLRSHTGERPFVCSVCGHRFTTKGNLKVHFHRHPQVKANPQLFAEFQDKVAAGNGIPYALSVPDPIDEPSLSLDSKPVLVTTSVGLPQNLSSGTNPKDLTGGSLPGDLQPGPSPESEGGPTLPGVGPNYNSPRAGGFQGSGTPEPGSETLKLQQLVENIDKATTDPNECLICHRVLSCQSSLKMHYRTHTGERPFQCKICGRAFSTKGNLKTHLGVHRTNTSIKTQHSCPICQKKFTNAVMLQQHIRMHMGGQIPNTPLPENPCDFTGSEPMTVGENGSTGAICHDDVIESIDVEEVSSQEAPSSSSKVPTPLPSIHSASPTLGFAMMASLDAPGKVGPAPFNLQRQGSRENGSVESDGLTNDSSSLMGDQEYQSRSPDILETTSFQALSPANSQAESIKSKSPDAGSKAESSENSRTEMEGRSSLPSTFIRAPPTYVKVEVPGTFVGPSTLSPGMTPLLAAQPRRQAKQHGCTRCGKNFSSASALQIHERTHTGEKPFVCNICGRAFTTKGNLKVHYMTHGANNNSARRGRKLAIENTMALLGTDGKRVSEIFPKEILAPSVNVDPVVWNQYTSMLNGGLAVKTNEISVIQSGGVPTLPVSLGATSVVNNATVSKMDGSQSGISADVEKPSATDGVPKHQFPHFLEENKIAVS
# Method: universal PBM
# Molecule type: double-stranded DNA, one strand shown
# Sample: in vitro
# Tested at: 600 nM
# Setting: 8-mer, flanks averaged, mean of replicates
# Direction: higher = stronger binding
Sequence,E-score
GGGTGCAC,-0.289
GATGAGGC,-0.116
TCATGCCA,0.12
GCTCGGCA,-0.145
AATCACCG,0.00628
ACAGGGAG,-0.244
CATGATGC,0.0817
CACGCTAC,-0.0832
ATCGACAA,0.0741
TCGCGCGA,-0.139
CGTCGTGC,-0.101
ACGTTCGA,0.0306
CAGATCGG,-0.163
GTAATCCA,0.123
AATAGCCC,-0.0483
CGGGGTTC,-0.266
AGTTTGCC,-0.0473
ATGAAGAG,0.234
AAGAGTAA,0.218
CCTTCAAG,0.0655
AGTGCCAG,-0.309
CAGAAAGC,-0.0974
CCACCTCA,-0.185
GTTGCTCA,0.0238
AGTCTTCC,-0.103

# Set 3
# Target: Histone acetyltransferase KAT6A, winged helix 2, GST fusion (KAT6A, Homo sapiens, UniProt Q92794, residues 85-181)
# Method: protein binding microarray
# Molecule type: double-stranded DNA, one strand shown
# Sample: in vitro
# Tested at: not given
# Setting: 8-mer, flanks averaged, mean of 2 arrays, mostly near background
# Reference: not given
# Direction: higher = stronger binding
# Construct (chain): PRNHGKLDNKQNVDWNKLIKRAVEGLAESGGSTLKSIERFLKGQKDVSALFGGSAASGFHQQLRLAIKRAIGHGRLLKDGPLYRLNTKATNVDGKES
Sequence,E-score
CGGCACCA,0.0836
ACATAAGG,-0.171
CGAGGCGC,0.233
CGCTCAGA,0.0546
CGACAGAA,0.0743
TGCATAAA,0.239
TAACGGTA,-0.132
ATTTGCAA,0.161
TCTCTCAA,0.0579
AATCAATT,0.13
AATTAGCT,-0.064
ATTCTCAA,-0.0763
GCTGGGTA,0.0396
GCAAGTAA,-0.0345
AAAAGTTC,-0.00138
AATACGAC,0.0195
CCCAACCA,-0.0481
GACGCGGC,-0.00771
AGCCAAAT,-0.135

# Set 4
# Target: Fragile X messenger ribonucleoprotein 1, C-terminal low-complexity region (Fmr1, Mus musculus, UniProt P35922)
# Method: RNA Bind-n-Seq
# Molecule type: RNA
# Sample: in vitro
# Tested at: 200 nM
# Setting: whole 134-nt RNA, ends assumed
# Together with: 150 mM KCl
# Reference: input library
# Direction: higher = stronger binding
# Constant ends, left off below: GGGAGUUCUACAGUCCGACGAUC … UGGAAUUCUCGGGUGUCAAGG
Sequence,log2 enrichment
UGUGAAAGAAAACCGAAGUUUUAAAUGACUUCUCAUGGUUAUUUUUUUUCCUUUCUCUUGCAGGACAUUGGGGACACAUUGAGCAGGUAU,0.279
GCAGGAAGUAAAAACAAAUGGAAAUGCUUCGGAUAGUGGCAGGGGUGGGGGUUGCUAAGUAAAGGGUGGGAUGGGAGUGGGUAAAGAGUU,0.119
CAAGUCCUGUGCUACACAUCGUAUGUACCGAAUCGGGUGGGAAAAAAAGGGUGGGAAAGUAUUAUGUUACGCCGUUCGGAUCUGCACUUC,0.919
AGUCCUGUGCUACACAUCGUAUGUACCGAAUCAAAUUUAAAUUUUUUUAAACCCAAAAAAGUAUUAUGUUACGCCGUUCGGAUCUGCACU,0.0228
AAGUCCUGUGCUACACAUCGUAUGUACCGAAUCGGUGGUUUUUUUGGUUUUUUUGGAAAGUAUUAUGUUACGCCGUUCGGAUCUGCACUU,-0.857
UGGCCCUGGUGGCAUGCGGGGAGGAAGAGGUGGCCUCAUGGACCGUGGUGGUCCCGGUGGAAUGUUCAGAGGUGGCCGUGGUGGAGACAG,0.103
UUCCUCAAGUCCUGUGCUACACAUCGUAUGUACCGAAUCGGGAGGAGGAGGAAAGUAUUAUGUUACGCCGUUCGGAUCUGCACUUCCAGC,-0.629
GUCCUGUGCUACACAUCGUAUGUACCGAAUCGGGAAAAAAAGGGAAAAAAAGGGUGGGAAAGUAUUAUGUUACGCCGUUCGGAUCUGCAC,-0.0136
UCCUGCCAACCUCUCUUAAUGCUCUGAGAGCCUCUGGUGUUGACAUAGAAGAGGAAACGGAGAAGAACCUGGAAAAGGUACAGACUAUCA,-1.45
UCCUGUGCUACACAUCGUAUGUACCGAAUCAAAUUUUUAAAUUUUUUUAAAUUUUUAAAAAAGUAUUAUGUUACGCCGUUCGGAUCUGCA,-0.594
UGUCUUUCCUGGUGACUAGGAUGUCGUCGGAGGAGGACAAGAGCGUGGAGCAGCCGCAGCCGCCGCCACCACCCCCCGAGGAGCCUGGAG,-0.401
AAGUCCUGUGCUACACAUCGUAUGUACCGAAUCGGGUUUUUGGGAGGGAAAAAGGGAAAGUAUUAUGUUACGCCGUUCGGAUCUGCACUU,0.504
AGUCCUGUGCUACACAUCGUAUGUACCGAAUCGGGAAAAAAAGGGAAAAAGGGUGGGAAAGUAUUAUGUUACGCCGUUCGGAUCUGCACU,0.352
UUGGAAGAGACCAGUGAAAUUCGAUCUGACUUGGAGCAGUUAGACCACGAGGUUAAGGAGGCUCAGACACUGUGCGAUGAACUCUCAGUG,0.646

# Set 5
# Target: Prothrombin, mature alpha-thrombin (F2, Homo sapiens, UniProt P00734)
# Method: aptamer microarray, sandwich
# Molecule type: DNA with 2'F-ANA
# Sample: in vitro
# Tested at: 200 nM
# Setting: whole 15-mer aptamer, many near background
# Together with: Cy3 exosite-II aptamer, 400 nM
# Direction: higher = stronger binding
# Sequence: GGTTGGTGTGGTTGG
Modification,mean fluorescence intensity [a.u.]
2'F-ANA at 1 4 6 7 9 10 11 12 15,55
2'F-ANA at 2 3 4 5 7 9 12 14 15,54.1
2'F-ANA at 1 3 4 5 11 14,44.1
2'F-ANA at 1 2 5 9 11 14 15,52.4
2'F-ANA at 4 5 7 9 10 11 12 13 14,47.2
2'F-ANA at 2 3 4 5 6 10,50.3
2'F-ANA at 1 2 6 7 8 9 10 11 12 13 15,64.8
2'F-ANA at 1 2 3 4 5 6 7 8,66.8
2'F-ANA at 3 6 9 10 11 12 13 15,414
2'F-ANA at 1 5 11 13,48
2'F-ANA at 1 3 7 8 14 15,130
2'F-ANA at 1 3 5 7 8 15,75.5
2'F-ANA at 1 3 4 7 10 11 14 15,50.5
2'F-ANA at 5 6 9 11 13 15,61.3
2'F-ANA at 3 6 8 11,1070
2'F-ANA at 3 5 12 14 15,77.8
2'F-ANA at 1 3 4 5 7 11 13,85.2
2'F-ANA at 2 4 5 6 7 9 11 12 13 15,70.4
2'F-ANA at 1 2 3 5 8 11 13 15,60.2
2'F-ANA at 1 2 4 9 10 11 13,50.4

# Some of these lines once more (set 4):
Sequence,log2 enrichment
CAAGUCCUGUGCUACACAUCGUAUGUACCGAAUCGGGUGGGAAAAAAAGGGUGGGAAAGUAUUAUGUUACGCCGUUCGGAUCUGCACUUC,0.919
AGUCCUGUGCUACACAUCGUAUGUACCGAAUCAAAUUUAAAUUUUUUUAAACCCAAAAAAGUAUUAUGUUACGCCGUUCGGAUCUGCACU,0.0228
AAGUCCUGUGCUACACAUCGUAUGUACCGAAUCGGUGGUUUUUUUGGUUUUUUUGGAAAGUAUUAUGUUACGCCGUUCGGAUCUGCACUU,-0.857
UGGCCCUGGUGGCAUGCGGGGAGGAAGAGGUGGCCUCAUGGACCGUGGUGGUCCCGGUGGAAUGUUCAGAGGUGGCCGUGGUGGAGACAG,0.103
UUCCUCAAGUCCUGUGCUACACAUCGUAUGUACCGAAUCGGGAGGAGGAGGAAAGUAUUAUGUUACGCCGUUCGGAUCUGCACUUCCAGC,-0.629
GUCCUGUGCUACACAUCGUAUGUACCGAAUCGGGAAAAAAAGGGAAAAAAAGGGUGGGAAAGUAUUAUGUUACGCCGUUCGGAUCUGCAC,-0.0136
UCCUGCCAACCUCUCUUAAUGCUCUGAGAGCCUCUGGUGUUGACAUAGAAGAGGAAACGGAGAAGAACCUGGAAAAGGUACAGACUAUCA,-1.45
UCCUGUGCUACACAUCGUAUGUACCGAAUCAAAUUUUUAAAUUUUUUUAAAUUUUUAAAAAAGUAUUAUGUUACGCCGUUCGGAUCUGCA,-0.594
UGUCUUUCCUGGUGACUAGGAUGUCGUCGGAGGAGGACAAGAGCGUGGAGCAGCCGCAGCCGCCGCCACCACCCCCCGAGGAGCCUGGAG,-0.401
AAGUCCUGUGCUACACAUCGUAUGUACCGAAUCGGGUUUUUGGGAGGGAAAAAGGGAAAGUAUUAUGUUACGCCGUUCGGAUCUGCACUU,0.504
